Measured values of several laboratories.
Each numbered part is a random draw from the data of one study; scales do not carry over between parts.

Study 1
Target: RNA binding protein fox-1 homolog 2, RRM domain, GST-SBP tag (RBFOX2, Homo sapiens, UniProt O43251-10, residues 100-194)
Method: RNA Bind-n-Seq
Form: RNA
Medium: in vitro
Concentration: 365 nM
Setting: natural RNA segment, single round, ends assumed
Reference: no-protein control
Direction: higher = stronger binding
Measurement: RBNS enrichment (R)
All sequences stand within: GGGAGUUCUACAGUCCGACGAUC … UGGAAUUCUCGGGUGCCAA
Residues (chain): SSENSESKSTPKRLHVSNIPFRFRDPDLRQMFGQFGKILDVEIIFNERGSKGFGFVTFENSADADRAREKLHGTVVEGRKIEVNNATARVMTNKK
UUUUUUUAAAUUUUUAUUUUAAAAGGCACAAAACUAUAGAUAUUAGUUGAAUGUUGAGGCUUUAACUUUUUCGGUGUCUUUCUACAGCUGUGUUCUGUGACUCAAUUGUA: 0.556
UUAAAAAACUGCCUUAGGGUUUUAAAACCUUCCCUACAGUUAUAACCACGUGUAAUUUUGUGGAAAUGAUAUAACAGCUAUUAAUACUACUAUAACAUAGGCAUAAAUAU: 0.533
UGCCACAGAACAAACACUACUCUAGCAGAGCCUUUCUUGCACUUUAAAGUGAGAUUAAUUUAGCUGUAAUUUGGUUAAAAACUUCCUAAGAGAGAAAAUUAAGUCUACUG: 0.402
CGUCCUUUACCAGUGUCAACCCCAGAGGCUUUCUCUCUCCAGAACUGGCCAGCUAGAGACCGUUCUAAAGUCCACUGGAAGUCAAGAAUCUCGUUUACUGAUAAUAGUAA: 0.36
CAUGGCUUCCCCAGCCCAGGGAGGGUAUCAGUAUCAUUCAUUCUCUCUCCCCUCACUGGUAUGGGUUCAGAGCAAUGCCUAGGGCCCCUCUCUGCUCCCCUGCCUAGUGG: 0.32
UGAUUGUAGUAACUCUAUUGGCAUCUUGUAAAUUGGCUCAUUUCCUACGUGAUGUACAUAGAAUAUUAUAGCCUAAAGAUUUUCCAGUUACUUGCGGUCUUUUUAAAUUG: 0.559

Study 2
Target: Histone acetyltransferase KAT6A, winged helix 1, GST fusion (KAT6A, Homo sapiens, UniProt Q92794, residues 1-85)
Method: protein binding microarray
Form: double-stranded DNA, one strand shown
Medium: in vitro
Concentration: not given
Setting: 8-mer, flanks averaged, mean of 2 arrays, mostly near background
Reference: not given
Direction: higher = stronger binding
Measurement: E-score
Residues (chain): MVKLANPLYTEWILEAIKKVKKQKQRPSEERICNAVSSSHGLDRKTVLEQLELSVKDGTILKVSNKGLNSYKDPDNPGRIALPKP
GTCGAAAA: -0.0912
ACACCGCC: 0.187
CAATGGGG: -0.0106
AACGCCTG: -0.122
AAGGCGTA: -0.0705

Study 3
Target: Prothrombin, mature alpha-thrombin (F2, Homo sapiens, UniProt P00734)
Method: aptamer microarray, sandwich
Form: DNA with 2'F-ANA
Medium: in vitro
Concentration: 200 nM
Setting: whole 15-mer aptamer, many near background
With: Cy3 exosite-II aptamer, 400 nM
Direction: higher = stronger binding
Measurement: mean fluorescence intensity
Sequence: GGTTGGTGTGGTTGG
2'F-ANA at 4 5 7 8 12 13 15: 98.9 a.u.
2'F-ANA at 1 2 4 5 6 7 9 10 11 12 14 15: 59.4 a.u.
2'F-ANA at 1 2 3 4 6 7 8 9 10 12 13 14: 48.5 a.u.
2'F-ANA at 2 4 5 11 12 14: 54 a.u.
2'F-ANA at 1 2 3 6 8 15: 253 a.u.
2'F-ANA at 1 2 3 10 13: 59.9 a.u.
2'F-ANA at 1 6 8 11 13: 162 a.u.

Other studies, line by line
PhoQ, residues 284 288 289 292 302 303 TLASMF
fold induction (PhoP, residues 12 14 15 18 19 IFFTR (Escherichia coli, UniProt P23836); Sort-seq, measured: YFP reporter; E. coli; PhoQ-PhoP variant library, with: 10 µM Mg2+; reference: high Mg2+ state, higher = stronger signaling): 2.68

Some of these lines once more (study 1):
UUUUUUUAAAUUUUUAUUUUAAAAGGCACAAAACUAUAGAUAUUAGUUGAAUGUUGAGGCUUUAACUUUUUCGGUGUCUUUCUACAGCUGUGUUCUGUGACUCAAUUGUA: 0.556
UUAAAAAACUGCCUUAGGGUUUUAAAACCUUCCCUACAGUUAUAACCACGUGUAAUUUUGUGGAAAUGAUAUAACAGCUAUUAAUACUACUAUAACAUAGGCAUAAAUAU: 0.533
UGCCACAGAACAAACACUACUCUAGCAGAGCCUUUCUUGCACUUUAAAGUGAGAUUAAUUUAGCUGUAAUUUGGUUAAAAACUUCCUAAGAGAGAAAAUUAAGUCUACUG: 0.402
